Results gathered from unrelated publications.
Numbers after ± are the reported error.
PCSK9: PCSK9 fragment (Homo sapiens)
indolicidin: indolicidin (Bos taurus, UniProt P33046)
UniProt P33046, sequence (whole entry, looked up): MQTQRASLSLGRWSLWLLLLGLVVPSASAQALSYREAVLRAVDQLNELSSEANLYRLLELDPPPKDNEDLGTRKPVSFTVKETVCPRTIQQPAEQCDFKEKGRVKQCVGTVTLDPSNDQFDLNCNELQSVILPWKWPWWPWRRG
CD8A 22-235: CD8A fragment (Homo sapiens)
B1: UGT1A9 (Homo sapiens, UniProt O60656); chain GKLLVVPMDGSHWFTMRSVVEKLILRGHEVVVVMPEVSWQLGRSLNCTVKTYSTSYTLEDLDREFKAFAHAQWKAQVRSIYSLLMGSYNDIFDLFFSNCRSLFKDKKLVEYLKESSFDAVFLDPFDNCGLIVAKYFSLPSVVFARGILCHYLEEGAQCPAPLSYVPRILLGFSDAMTFKERVRNHIMHLEEHLLCHRFFKNALEIASEILQTPVTEYDLYSHTSIWLLRTDFVLDYPKPVMPNMIFIGGINCHQGKPLPMEFEAYINASGEHGIVVFSLGSMVSEIPEKKAMAIADALGKIPQTVLWRYTGTRPSNLANNTILVKWLPQNDLLGHPMTRAFITHAGSHGVYESICNGVPMVMMPLFGDQMDNAKRMETKGAGVTLNVLEMTSEDLENALKAVINDKSYKENIMRLSSLHKDRPVEPLDLAVFWVEFVMRHKGAPHLRPAAHDLTWYQYHSLDVIGFLLAVVLTVAFITFKCCAYGYRKCLGKKGRVKKAHKSKTH
UniProt P16422, sequence (24-314, looked up): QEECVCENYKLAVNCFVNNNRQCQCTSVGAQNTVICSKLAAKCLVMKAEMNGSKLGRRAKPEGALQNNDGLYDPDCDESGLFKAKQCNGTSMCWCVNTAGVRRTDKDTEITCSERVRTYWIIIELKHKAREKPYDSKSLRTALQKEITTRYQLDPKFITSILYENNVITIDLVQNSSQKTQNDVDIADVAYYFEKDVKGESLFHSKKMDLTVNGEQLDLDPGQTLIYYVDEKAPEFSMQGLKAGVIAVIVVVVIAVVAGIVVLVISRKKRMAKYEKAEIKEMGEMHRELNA
UniProt P19525, sequence (whole entry, looked up): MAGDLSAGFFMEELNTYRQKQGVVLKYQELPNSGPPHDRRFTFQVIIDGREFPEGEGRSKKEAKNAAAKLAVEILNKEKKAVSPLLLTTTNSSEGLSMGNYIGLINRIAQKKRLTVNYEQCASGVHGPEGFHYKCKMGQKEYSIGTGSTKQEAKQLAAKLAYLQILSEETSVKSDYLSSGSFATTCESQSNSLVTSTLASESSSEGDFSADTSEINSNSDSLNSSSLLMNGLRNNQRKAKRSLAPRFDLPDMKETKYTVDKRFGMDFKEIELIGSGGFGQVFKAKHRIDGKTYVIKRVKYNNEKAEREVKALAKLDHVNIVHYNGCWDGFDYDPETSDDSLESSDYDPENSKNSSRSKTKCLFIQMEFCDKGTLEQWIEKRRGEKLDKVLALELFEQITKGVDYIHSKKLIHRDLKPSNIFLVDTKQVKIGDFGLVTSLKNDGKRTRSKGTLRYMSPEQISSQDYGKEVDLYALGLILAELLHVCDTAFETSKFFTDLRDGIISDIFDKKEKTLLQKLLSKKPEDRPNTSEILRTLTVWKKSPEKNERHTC
UniProt Q8MQJ9, sequence (whole entry, looked up): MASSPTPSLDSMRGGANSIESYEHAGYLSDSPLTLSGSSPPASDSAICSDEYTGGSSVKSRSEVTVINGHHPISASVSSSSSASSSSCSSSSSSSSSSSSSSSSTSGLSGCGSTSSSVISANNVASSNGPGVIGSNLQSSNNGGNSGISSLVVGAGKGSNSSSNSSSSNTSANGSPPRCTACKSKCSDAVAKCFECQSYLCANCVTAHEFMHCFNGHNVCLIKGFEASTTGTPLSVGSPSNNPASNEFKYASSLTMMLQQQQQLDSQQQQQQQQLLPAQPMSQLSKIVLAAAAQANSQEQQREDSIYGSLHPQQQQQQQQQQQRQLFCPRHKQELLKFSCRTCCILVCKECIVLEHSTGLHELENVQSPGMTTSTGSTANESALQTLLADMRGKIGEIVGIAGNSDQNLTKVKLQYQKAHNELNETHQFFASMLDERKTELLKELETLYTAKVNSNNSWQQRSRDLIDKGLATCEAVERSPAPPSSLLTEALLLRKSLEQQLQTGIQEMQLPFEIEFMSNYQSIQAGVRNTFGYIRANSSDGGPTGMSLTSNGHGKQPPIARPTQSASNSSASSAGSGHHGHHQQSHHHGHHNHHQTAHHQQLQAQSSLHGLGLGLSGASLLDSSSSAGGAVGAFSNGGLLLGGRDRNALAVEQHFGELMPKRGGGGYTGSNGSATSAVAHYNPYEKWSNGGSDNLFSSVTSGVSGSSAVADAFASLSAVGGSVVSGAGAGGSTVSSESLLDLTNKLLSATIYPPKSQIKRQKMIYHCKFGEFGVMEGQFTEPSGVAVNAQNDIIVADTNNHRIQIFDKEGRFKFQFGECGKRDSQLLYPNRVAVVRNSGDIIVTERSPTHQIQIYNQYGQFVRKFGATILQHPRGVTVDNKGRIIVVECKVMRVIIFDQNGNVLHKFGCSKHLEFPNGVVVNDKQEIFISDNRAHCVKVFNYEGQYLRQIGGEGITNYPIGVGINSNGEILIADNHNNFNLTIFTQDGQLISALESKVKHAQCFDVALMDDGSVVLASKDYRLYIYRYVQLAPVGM
UniProt P27695, sequence (whole entry, looked up): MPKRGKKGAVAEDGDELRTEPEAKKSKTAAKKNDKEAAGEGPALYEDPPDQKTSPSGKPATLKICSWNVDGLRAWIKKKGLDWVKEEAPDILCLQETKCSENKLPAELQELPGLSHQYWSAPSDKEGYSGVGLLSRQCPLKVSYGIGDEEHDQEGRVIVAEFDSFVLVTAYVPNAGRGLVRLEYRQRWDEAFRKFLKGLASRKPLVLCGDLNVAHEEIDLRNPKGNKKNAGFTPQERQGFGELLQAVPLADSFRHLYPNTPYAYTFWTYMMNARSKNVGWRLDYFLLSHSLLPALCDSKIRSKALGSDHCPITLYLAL

The Kd of `GGGGAAUCAAAAAUUUAUUUUUUACACGGAAACGAUGCCACAGUUGACUGAACCUGUCUUCUAACAGUAGUUAAUUGCCAGUAUUUCAAACAAGAUUUGAAAUACGAGUUUCCCAGAAUAAUUUAUUUGGACAGGAUAGGAAGUCCGAUUUCUGUGUUGUCUCAAACGAGGCGAUAGAAUUGGGAUGUCGAAGAAAGUCUACAUUAGAAUUCGAGCU (structured RNA (Saccharomyces cerevisiae); two hairpins)` is reported as 0.5 ± 0.2 nM (CBF5/NOP10/GAR1/NHP2 (Saccharomyces cerevisiae); filter binding).
With `B1 (UGT1A9)` the Vmax was 0.00244 µmol/min/mg (O=C(c1ccccc1)c1ccc(O)cc1; steady-state kinetics; pH 7.4, 37 °C).
`GGGAGACCUAGCCUCAUAUAAUCGUUGUCCAGAAUUGUAUAUAUUCGUAGCAUAAGUUUUCCAAACAUUAUUUUGUUGUCGAAAAUUGUACAUAAGCCAAUUAAGCCGCUAAUUCU (ssRNA)` gave a Kd of 100 nM (brat 756-1037 (Drosophila melanogaster, UniProt Q8MQJ9); EMSA; with tRNA, heparin).
`TGCTACCGTTGTTTACCCTGCCACCTTCTGGAGTCCAGATGTAGGTAG (XNA; phenol pos 9, isopentyl 21, cyclopentyl 24)` gave a Kd of 3.7 nM (PCSK9; SPR).
With `GAGAACTGTTTTCAGUUCUC (DNA:RNA chimera; hairpin, DNA 1-12, RNA 13-20)` the Kd was 0.51 ± 0.01 nM (S9.6 scFv (Mus musculus); SPR).
`CGATGTCATCG (dsDNA; blunt, O6-dG interstrand cross-link, 7-carbon)` has a Kd of 9670 ± 1120 nM (MGMT full length assumed C145S (Homo sapiens, UniProt P16455); EMSA; double-stranded DNA, one strand shown; monomeric Kd).
`CCGCCTCCGGGAGAGCTG (dsDNA; blunt)` gave a Kd of 1100 ± 80 nM (NR3C1 417-506 A458T (Homo sapiens, UniProt P04150); fluorescence polarization; double-stranded DNA, one strand shown; one-site fit).
`TGGGGAGGGTGGGGAGGGTGGGGAAGG (G-quadruplex DNA (Homo sapiens); parallel)` has a Kd of 166 nM (BG4 scFv; SPRi; K+ 100 mM).
The Kd of `ATUTCATTT (ssDNA; U3-A6 triazole cross-link, internal)` is reported as 30 ± 6 nM (APOBEC3A E72A (Homo sapiens, UniProt P31941); ITC).
`GGGAGAGGCAAGUCGUUCGGUCGCGUUCGCUGUCGUCGCGUCUUGUAUGCCACUGUACCC / GGGTACAGTGGCATACAAGACGCGACGACAGCGAACGCGACCGAACGACTTGCCTCTCCC (chimeric DNA/RNA duplex; blunt, strand 2 RNA 23-38)` has a Kd of 30 ± 20 nM (EIF2AK2 1-184 (Homo sapiens, UniProt P19525); ITC; 20 °C, strong site, two-site fit).
For `GAGCGUAUCCGCUCUUUUUUUUUUUUUUUUUUUUUU (structured RNA; hairpin, 3' U20 tail)`, the Kd was 422 ± 40 nM (PNPT1 46-783 S484A (Homo sapiens, UniProt Q8TCS8); fluorescence polarization; Mg2+ 2 mM).
`TTGGGCNGGGCCTGGGCGGGGCC (G-quadruplex DNA (Homo sapiens); N7 tetrahydrofuran abasic site)` gave a Kd of 57 nM (APEX1 full length assumed (Homo sapiens, UniProt P27695); fluorescence anisotropy; together with: Sm3+ 10 mM).
The Kd of `CAGAGAGAGTTTTCTCTCTCTG (DNA hairpin; hairpin, 9 bp stem, TTTT loop)` is reported as 43800 nM (indolicidin; SPR).
`GAGUUGAGUUGAGUUGAGUUGAGUUGAGUUGAGUUGAGUUGAGUUGAGUUGAGUU (ssRNA; single strand)` gave a Kd of 230 ± 6 nM (mtrB full length assumed T30D (Bacillus subtilis, UniProt P19466); filter binding; together with: L-tryptophan 1 mM).
With `AACAGAGGGACAAACGGGGGAAGATTTGACGTCGACGACA (ssDNA; two hairpins)` the Kd was 5480 ± 840 nM (EPCAM residues 24-314 (Homo sapiens, UniProt P16422); flow cytometry; HepG2; not purified).
The Kd of `DNA 1 TTCAGGTCAGAAGGGTTCTATCTCTGTTGGCCAGAATGTCCCTTTTATTACTGGTCGTGT / DNA 2 ACACGACCAGTAATAAAAGGGACATTCTGG (dsDNA; primer-template, 5' overhang, 5' amino C6 dT)` is reported as 200 ± 31 nM (RFC1/RFC2/RFC3/RFC4/RFC5 RFC1 284-861 (Saccharomyces cerevisiae); fluorescence anisotropy; double-stranded DNA; with maltose, together with: ATPgS 0.5 mM).
With `AATAAATNATTTATT (dsDNA)` the Kd was 2.5 ± 0.5 nM (protein full length assumed (Edwardsiella piscicida, UniProt A0AAQ3C0I8); MST; double-stranded DNA, one strand shown).
For `CCUUGGACAUUUUGUGUCUAGUUGGUAGGGCAUAAUGCCCUUUUACA (ssRNA (Mus musculus))`, the Kd was 59.5 nM (Traf3ip2 fragment (Mus musculus); SPR).
The Kd of `ATCCAGAGTGACGCAGCAGCTCGATCGTATAGCCGTGACGCAGCTTGAAATGGGATCGCGTCCACAGTTTTGGACACGGTGGCTTAGT (DNA; intramolecular fold)` is reported as 2.4 ± 0.9 nM (CD8A 22-235; flow cytometry; CD8+ T cells; apparent, not purified).
`CGGTGTGGTCGCTGTAATCAGAATTTTUUCUGAUUACAGCGACCACACCG (DNA:RNA chimera; hairpin, DNA 1-27, RNA 28-50)` gave a Kd of 0.47 ± 0.08 nM (S9.6 scFv (Mus musculus); SPR).
`TGCTACCGTTGTTTACCCTGCCACCTTCTGGAGTCCAGATGTAGGTAG (XNA; side-chain-functionalized nucleotides, stem-loop)` has a Kd of 3 nM (PCSK9; SPR).
For `CGGTGTGAATCAGACTTTTGUCUGAUUCACACCG (DNA:RNA chimera; hairpin, DNA 1-19, RNA 20-34)`, the Kd was 0.54 ± 0.02 nM (S9.6 scFv (Mus musculus); SPR).
For `CGTGTGTGTCCCCACACACACG (DNA hairpin; hairpin, 9 bp stem, CCCC loop)`, the Kd was 192000 nM (indolicidin; SPR).
For `GCGCGGGGAGGGGAGAGGGGGCGGGAGCGGC (G-quadruplex DNA (Homo sapiens))`, the Kd was 17.4 ± 0.588 nM (BG4 antibody; BLI; 30 °C).
`ATCCAGAGTGACGCAGCAACAGAGGTGTAGAAGTACACGTGAACAAGCTTGAAATTGTCTCTGACAGAGGTGGACACGGTGGCTTAGT (DNA; intramolecular fold)` gave a Kd of 1.9 ± 0.8 nM (CD8A 22-235; flow cytometry; CD8+ T cells; apparent, not purified).
With `GCCTGTTGTGAGCCTCCTAACCGTGCGTATTCGTACTGGAACTGATATCGATGTCCCCATGCTTATTCTTGTCTCCC (ssDNA; three predicted stem loops)` the Kd was 137 ± 22 nM (ITGA6/ITGB4 (Homo sapiens); flow cytometry; PC-3; not purified).
